Experimental data pooled from the literature.
Parts stem from different laboratories: compare values within a part only.
UniProt O75582, sequence (whole entry, looked up): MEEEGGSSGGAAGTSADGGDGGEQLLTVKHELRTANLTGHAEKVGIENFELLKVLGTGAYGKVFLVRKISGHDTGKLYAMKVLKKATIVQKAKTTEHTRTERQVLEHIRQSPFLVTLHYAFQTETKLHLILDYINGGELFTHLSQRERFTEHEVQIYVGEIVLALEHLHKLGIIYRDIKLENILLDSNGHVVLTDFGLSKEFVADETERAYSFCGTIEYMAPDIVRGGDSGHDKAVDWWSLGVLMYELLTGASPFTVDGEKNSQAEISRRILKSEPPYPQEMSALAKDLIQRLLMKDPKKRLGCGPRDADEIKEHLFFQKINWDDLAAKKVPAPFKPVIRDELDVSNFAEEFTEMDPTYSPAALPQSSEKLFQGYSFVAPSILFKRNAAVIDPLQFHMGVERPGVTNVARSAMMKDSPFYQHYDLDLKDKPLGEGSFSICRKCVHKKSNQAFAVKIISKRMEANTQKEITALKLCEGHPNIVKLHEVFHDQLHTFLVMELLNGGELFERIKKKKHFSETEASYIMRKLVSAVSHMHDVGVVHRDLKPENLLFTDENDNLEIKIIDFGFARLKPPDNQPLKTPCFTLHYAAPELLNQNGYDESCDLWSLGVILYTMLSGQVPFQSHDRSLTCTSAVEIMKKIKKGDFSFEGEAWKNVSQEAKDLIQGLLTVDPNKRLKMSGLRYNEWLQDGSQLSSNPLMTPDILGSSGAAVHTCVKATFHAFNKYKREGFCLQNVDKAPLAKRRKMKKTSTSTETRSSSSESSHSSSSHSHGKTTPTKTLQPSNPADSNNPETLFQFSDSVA
UniProt O00506, sequence (whole entry, looked up): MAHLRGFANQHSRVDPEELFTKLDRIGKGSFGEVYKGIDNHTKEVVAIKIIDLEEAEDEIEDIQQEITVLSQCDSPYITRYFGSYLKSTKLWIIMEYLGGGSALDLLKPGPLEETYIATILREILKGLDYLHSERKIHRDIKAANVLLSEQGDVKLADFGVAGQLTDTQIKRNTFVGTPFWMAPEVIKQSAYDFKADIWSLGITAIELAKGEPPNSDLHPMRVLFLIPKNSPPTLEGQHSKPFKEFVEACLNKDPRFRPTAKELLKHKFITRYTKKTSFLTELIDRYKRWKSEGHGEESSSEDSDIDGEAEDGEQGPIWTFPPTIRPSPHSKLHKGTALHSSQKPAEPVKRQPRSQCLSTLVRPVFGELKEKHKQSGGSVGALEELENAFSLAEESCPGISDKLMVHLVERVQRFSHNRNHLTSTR
UniProt Q9Y6E0, sequence (whole entry, looked up): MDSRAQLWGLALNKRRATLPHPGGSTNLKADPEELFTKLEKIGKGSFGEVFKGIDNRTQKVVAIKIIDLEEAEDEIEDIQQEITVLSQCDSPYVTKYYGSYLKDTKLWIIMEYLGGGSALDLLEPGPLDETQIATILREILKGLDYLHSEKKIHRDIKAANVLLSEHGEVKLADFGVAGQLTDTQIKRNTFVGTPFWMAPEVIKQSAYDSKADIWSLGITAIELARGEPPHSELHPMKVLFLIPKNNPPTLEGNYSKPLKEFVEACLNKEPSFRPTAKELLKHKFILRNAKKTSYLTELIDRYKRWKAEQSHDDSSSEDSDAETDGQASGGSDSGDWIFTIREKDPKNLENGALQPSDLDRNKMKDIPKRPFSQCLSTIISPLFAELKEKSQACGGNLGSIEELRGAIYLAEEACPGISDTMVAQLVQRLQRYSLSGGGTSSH
UniProt O75716, sequence (whole entry, looked up): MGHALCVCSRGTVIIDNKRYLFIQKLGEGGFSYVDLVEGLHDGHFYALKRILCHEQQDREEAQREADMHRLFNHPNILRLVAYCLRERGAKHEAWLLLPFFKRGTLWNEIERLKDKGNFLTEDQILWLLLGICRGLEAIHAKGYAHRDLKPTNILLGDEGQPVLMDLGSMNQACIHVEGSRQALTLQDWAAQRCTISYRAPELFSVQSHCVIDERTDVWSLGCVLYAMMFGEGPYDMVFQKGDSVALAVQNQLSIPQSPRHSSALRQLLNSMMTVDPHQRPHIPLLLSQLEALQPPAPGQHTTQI
UniProt P51813, sequence (whole entry, looked up): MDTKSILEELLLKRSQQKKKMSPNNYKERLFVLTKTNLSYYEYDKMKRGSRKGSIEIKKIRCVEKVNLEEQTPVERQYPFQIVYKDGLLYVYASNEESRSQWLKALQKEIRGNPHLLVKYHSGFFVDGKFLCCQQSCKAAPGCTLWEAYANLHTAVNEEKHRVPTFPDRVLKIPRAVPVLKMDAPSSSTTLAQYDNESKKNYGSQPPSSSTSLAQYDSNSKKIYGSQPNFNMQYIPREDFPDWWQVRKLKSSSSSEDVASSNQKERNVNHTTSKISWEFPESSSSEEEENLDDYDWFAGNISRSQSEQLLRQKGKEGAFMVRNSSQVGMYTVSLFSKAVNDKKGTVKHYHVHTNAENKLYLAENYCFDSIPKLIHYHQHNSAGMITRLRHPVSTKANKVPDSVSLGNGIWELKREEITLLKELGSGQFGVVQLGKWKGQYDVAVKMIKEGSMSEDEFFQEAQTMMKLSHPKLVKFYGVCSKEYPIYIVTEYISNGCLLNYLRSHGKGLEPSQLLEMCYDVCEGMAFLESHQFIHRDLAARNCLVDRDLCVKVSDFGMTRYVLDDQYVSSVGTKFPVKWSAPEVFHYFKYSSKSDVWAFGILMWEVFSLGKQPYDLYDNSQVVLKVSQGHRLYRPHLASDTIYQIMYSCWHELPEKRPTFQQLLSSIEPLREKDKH
UniProt Q00532, sequence (whole entry, looked up): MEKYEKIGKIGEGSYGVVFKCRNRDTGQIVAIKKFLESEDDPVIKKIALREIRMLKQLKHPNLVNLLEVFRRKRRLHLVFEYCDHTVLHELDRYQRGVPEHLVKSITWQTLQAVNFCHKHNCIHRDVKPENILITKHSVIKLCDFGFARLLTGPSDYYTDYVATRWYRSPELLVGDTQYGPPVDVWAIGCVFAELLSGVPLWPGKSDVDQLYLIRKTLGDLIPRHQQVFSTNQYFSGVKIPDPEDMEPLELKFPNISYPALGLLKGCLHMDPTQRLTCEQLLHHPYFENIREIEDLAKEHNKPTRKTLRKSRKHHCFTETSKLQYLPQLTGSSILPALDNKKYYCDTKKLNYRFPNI
UniProt Q16816, sequence (whole entry, looked up): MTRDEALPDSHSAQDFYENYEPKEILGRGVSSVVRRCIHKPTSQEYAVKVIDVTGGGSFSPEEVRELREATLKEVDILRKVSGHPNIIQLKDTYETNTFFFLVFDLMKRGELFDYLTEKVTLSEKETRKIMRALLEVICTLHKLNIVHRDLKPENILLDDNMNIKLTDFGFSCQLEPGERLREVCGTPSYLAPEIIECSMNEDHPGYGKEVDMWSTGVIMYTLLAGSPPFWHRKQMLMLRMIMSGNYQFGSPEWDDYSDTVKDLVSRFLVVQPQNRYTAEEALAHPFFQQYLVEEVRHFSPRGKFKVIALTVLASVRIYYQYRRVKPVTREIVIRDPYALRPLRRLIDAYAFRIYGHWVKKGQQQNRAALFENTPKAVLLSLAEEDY
UniProt Q9UK32, sequence (whole entry, looked up): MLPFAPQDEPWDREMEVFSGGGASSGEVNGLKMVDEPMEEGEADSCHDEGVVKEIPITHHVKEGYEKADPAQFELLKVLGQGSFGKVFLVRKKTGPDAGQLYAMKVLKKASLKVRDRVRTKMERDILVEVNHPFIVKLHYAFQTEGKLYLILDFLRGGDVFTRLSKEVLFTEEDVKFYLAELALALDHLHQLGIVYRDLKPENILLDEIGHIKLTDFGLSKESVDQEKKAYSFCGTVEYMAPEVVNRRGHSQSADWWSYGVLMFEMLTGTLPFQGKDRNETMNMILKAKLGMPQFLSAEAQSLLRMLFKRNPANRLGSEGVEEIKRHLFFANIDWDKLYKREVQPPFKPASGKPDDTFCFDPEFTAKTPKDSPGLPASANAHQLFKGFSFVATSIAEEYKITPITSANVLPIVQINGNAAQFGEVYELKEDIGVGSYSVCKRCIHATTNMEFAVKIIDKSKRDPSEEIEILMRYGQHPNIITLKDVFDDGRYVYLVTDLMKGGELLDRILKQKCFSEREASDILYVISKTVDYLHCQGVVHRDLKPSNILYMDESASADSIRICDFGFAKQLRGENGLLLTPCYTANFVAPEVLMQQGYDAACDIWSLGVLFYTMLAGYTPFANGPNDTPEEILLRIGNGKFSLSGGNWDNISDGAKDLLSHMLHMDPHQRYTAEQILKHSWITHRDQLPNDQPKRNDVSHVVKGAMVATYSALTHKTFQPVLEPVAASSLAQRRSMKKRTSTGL
UniProt Q04759, sequence (whole entry, looked up): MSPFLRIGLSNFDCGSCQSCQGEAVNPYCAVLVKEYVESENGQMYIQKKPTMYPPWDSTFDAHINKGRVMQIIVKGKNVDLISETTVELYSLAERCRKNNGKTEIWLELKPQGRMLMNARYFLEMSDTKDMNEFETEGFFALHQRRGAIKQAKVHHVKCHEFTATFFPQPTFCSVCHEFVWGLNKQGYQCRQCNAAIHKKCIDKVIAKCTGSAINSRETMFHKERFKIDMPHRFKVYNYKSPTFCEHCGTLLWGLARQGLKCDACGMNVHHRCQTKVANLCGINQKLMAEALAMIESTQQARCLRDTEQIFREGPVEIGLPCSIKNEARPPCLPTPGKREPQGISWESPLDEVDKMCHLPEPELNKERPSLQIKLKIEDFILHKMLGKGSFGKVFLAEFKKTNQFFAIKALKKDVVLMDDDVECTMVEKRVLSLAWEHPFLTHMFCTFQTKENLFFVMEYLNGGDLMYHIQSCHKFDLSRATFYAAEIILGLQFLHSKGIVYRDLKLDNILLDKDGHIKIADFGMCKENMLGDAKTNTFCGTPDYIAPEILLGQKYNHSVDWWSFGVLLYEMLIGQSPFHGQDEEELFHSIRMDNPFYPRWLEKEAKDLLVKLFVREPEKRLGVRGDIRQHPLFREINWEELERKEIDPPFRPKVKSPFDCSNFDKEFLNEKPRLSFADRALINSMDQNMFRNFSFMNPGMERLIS

Study 1 — Structure (SMILES): COc1ccc(-c2cnc3c(-c4ccsc4)cnn3c2)cc1; effect on: enzyme activity; mode: inhibitor; concentration: 0.5 µM; relative to: control
The remaining activity was 92.7% (WNK3 (Homo sapiens, UniProt Q9BYP7)).
It gave 83.5% for remaining activity (BLK (Homo sapiens, UniProt P51451)).
SRMS (Homo sapiens, UniProt Q9H3Y6) — remaining activity: 97.4%.
Cyclin-dependent kinase 6, with cyclin D3 (CDK6, Homo sapiens, UniProt Q00534) — remaining activity: 33.4%.
For AXL (Homo sapiens, UniProt P30530): remaining activity read 96.7%.
The remaining activity was 93.9% (PRKACG (Homo sapiens, UniProt P22612)).
It gave 91.2% for remaining activity (HIPK2 (Homo sapiens, UniProt Q9H2X6)).
For HIPK4 (Homo sapiens, UniProt Q8NE63): remaining activity read 108%.
MAP4K4 (Homo sapiens, UniProt O95819) — remaining activity: 28.4%.
EPHA4 (Homo sapiens, UniProt P54764) — remaining activity: 87.6%.
The remaining activity was 72.9% (ABL1 (Homo sapiens, UniProt P00519)).
For EPHB1 (Homo sapiens, UniProt P54762): remaining activity read 83.1%.
It gave 90.7% for remaining activity (RPS6KA6 (Homo sapiens, UniProt Q9UK32)).
PHKG1 (Homo sapiens, UniProt Q16816) — remaining activity: 73.2%.
RPS6KA5 (Homo sapiens, UniProt O75582) — remaining activity: 90.3%.
The remaining activity was 82.9% (Cyclin-dependent kinase 4, with cyclin D3 (CDK4, Homo sapiens, UniProt P11802)).

Study 2 — technique: RNAcompete; molecule type: RNA; sample: in vitro; concentration: 20 nM; notes: 7-mer, probes averaged, single round; relative to: mean of 7-mers; reading: higher = stronger binding
Target: PABPC1L2, full length, GST fusion (mouse, UniProt A0ABA7IW68)
Target sequence (chain): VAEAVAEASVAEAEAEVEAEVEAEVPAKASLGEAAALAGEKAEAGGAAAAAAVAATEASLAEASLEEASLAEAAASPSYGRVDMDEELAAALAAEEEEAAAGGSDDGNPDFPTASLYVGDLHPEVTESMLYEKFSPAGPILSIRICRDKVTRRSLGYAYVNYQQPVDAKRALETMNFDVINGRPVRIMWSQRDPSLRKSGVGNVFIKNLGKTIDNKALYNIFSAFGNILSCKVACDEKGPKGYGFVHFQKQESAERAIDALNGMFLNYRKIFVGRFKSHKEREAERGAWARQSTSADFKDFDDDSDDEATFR
With `GCGUGGG` the 7-mer Z-score was 0.198.
The 7-mer Z-score of `GGCAGUA` is reported as 0.242.
The 7-mer Z-score of `UGUCAGG` is reported as -0.0391.
`UGCUUCU` gave a 7-mer Z-score of -0.291.
For `GACCAGA`, the 7-mer Z-score was 0.0642.
For `AUCGUCC`, the 7-mer Z-score was -0.267.
With `AAGCACG` the 7-mer Z-score was 0.138.
The 7-mer Z-score of `UUUGCGA` is reported as -0.298.

Study 3 — effect on: cell-free assay; technique: competition with immobilised ligand; concentration: 0.1 µM
Compound: COCCOc1nc(-c2ccc(Cl)nc2)nc2c1CN(C(=O)c1ncn3ccccc13)CC2
MAP2K3 (Homo sapiens, UniProt P46734) — remaining binding: 93%.
For CDKL1 (Homo sapiens, UniProt Q00532): remaining binding read 61%.
It gave 66% for remaining binding (SRPK3 (Homo sapiens, UniProt Q9UPE1)).
Tyrosine-protein kinase ABL1, non-phosphorylated (ABL1, Homo sapiens, UniProt P00519, T315I) — remaining binding: 75%.
PIK3CD (Homo sapiens, UniProt O00329) — remaining binding: 94%.
It gave 100% for remaining binding (PRKCQ (Homo sapiens, UniProt Q04759)).
For Ribosomal protein S6 kinase alpha-5, C-terminal kinase domain (RPS6KA5, Homo sapiens, UniProt O75582): remaining binding read 100%.
It gave 95% for remaining binding (Aurora kinase C (AURKC, Homo sapiens, UniProt Q9UQB9)).
It gave 65% for remaining binding (ERBB3 (Homo sapiens, UniProt P21860)).
It gave 100% for remaining binding (STK24 (Homo sapiens, UniProt Q9Y6E0)).
BMPR1A (Homo sapiens, UniProt P36894) — remaining binding: 82%.
For STK25 (Homo sapiens, UniProt O00506): remaining binding read 100%.
It gave 100% for remaining binding (BRAF (Homo sapiens, UniProt P15056, V600E)).
For Tyrosine-protein kinase JAK1, JH2 (JAK1, Homo sapiens, UniProt P23458): remaining binding read 76%.
The remaining binding was 64% (FLT3 (Homo sapiens, UniProt P36888, F691L/ITD)).
GAK (Homo sapiens, UniProt O14976) — remaining binding: 100%.
STK16 (Homo sapiens, UniProt O75716) — remaining binding: 100%.
The remaining binding was 100% (BMX (Homo sapiens, UniProt P51813)).

Mixed results
`CC(C)n1cnc(-c2ccc(F)cc2)c1-c1ncc(C(=O)Nc2ccc(N3CCN(C)CC3)cc2)[nH]1`: “acute exacerbation incidence” 0% (IPF patients; 30 mg once daily, week 0 to 12).

Excerpt of the above (study 1):
The remaining activity was 92.7% (WNK3 (Homo sapiens, UniProt Q9BYP7)).
It gave 91.2% for remaining activity (HIPK2 (Homo sapiens, UniProt Q9H2X6)).
RPS6KA5 (Homo sapiens, UniProt O75582) — remaining activity: 90.3%.
The remaining activity was 82.9% (Cyclin-dependent kinase 4, with cyclin D3 (CDK4, Homo sapiens, UniProt P11802)).
It gave 83.5% for remaining activity (BLK (Homo sapiens, UniProt P51451)).
SRMS (Homo sapiens, UniProt Q9H3Y6) — remaining activity: 97.4%.
Cyclin-dependent kinase 6, with cyclin D3 (CDK6, Homo sapiens, UniProt Q00534) — remaining activity: 33.4%.
